Measured values gathered from unrelated publications.
Each numbered part is a random draw from the data of one study; scales do not carry over between parts.
UniProt O14933, sequence (whole entry, looked up): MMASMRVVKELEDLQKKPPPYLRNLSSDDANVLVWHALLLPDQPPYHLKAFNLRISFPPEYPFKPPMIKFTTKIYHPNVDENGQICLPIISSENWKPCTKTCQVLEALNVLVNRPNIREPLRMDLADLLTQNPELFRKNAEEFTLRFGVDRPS
UniProt Q5VVX9, sequence (whole entry, looked up): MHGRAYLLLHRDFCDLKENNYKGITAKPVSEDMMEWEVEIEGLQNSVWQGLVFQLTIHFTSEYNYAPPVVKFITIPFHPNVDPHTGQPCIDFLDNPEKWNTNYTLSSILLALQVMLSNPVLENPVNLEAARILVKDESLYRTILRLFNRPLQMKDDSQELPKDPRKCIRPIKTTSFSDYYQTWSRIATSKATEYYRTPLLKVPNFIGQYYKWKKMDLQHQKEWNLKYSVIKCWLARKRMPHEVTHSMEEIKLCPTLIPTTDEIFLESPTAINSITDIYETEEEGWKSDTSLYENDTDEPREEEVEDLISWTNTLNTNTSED
UniProt P49427, sequence (whole entry, looked up): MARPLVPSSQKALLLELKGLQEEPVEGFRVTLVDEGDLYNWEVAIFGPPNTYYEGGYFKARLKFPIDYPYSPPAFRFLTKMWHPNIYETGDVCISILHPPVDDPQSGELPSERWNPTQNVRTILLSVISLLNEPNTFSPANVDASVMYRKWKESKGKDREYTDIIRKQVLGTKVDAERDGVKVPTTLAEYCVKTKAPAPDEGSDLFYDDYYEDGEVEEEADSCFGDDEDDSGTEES
UniProt P51965, sequence (whole entry, looked up): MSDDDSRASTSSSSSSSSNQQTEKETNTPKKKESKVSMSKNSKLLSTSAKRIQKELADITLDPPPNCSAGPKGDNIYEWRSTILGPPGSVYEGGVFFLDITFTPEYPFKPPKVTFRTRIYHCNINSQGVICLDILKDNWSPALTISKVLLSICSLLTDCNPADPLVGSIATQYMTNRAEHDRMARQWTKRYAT
UniProt Q15819, sequence (whole entry, looked up): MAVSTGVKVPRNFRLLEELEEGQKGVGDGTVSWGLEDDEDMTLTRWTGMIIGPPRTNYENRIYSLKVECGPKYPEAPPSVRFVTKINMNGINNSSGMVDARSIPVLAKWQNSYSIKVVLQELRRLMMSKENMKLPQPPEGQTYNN
UniProt Q13404, sequence (whole entry, looked up): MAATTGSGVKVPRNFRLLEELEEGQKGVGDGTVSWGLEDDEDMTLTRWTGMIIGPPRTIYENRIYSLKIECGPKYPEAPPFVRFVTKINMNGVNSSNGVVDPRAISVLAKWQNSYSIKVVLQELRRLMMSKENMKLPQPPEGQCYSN
UniProt Q8WVN8, sequence (whole entry, looked up): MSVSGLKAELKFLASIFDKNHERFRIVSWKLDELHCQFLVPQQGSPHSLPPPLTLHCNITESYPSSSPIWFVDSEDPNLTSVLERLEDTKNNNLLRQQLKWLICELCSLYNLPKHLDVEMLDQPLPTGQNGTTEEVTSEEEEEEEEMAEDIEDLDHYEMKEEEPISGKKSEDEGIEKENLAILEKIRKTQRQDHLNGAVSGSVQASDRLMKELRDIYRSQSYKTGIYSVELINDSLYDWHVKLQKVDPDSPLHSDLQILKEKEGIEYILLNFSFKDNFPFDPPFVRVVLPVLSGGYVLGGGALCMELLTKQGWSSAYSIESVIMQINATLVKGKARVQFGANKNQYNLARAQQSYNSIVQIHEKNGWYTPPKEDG
UniProt Q96LR5, sequence (whole entry, looked up): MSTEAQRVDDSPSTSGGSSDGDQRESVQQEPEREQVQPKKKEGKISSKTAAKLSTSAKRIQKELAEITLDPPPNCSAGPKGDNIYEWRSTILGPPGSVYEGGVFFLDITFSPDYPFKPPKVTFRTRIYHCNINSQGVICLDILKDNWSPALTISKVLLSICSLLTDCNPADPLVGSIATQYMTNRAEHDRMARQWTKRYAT
UniProt P62256, sequence (whole entry, looked up): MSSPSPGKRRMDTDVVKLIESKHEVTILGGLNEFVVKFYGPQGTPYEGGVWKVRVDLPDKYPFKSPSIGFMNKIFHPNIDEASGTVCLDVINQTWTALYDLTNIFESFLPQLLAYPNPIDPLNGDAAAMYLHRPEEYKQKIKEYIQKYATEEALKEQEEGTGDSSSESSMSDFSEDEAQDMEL
UniProt P61088, sequence (whole entry, looked up): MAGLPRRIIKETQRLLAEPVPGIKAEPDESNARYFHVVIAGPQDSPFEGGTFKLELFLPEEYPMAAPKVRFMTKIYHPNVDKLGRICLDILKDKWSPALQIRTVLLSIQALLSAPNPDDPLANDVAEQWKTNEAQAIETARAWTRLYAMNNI

Sample 1
Target: Fragile X messenger ribonucleoprotein 1, C-terminal low-complexity region (Fmr1, Mus musculus, UniProt P35922)
Technique: RNA Bind-n-Seq
Form: RNA
Sample: in vitro
Tested at: 200 nM
Notes: whole 134-nt RNA, ends assumed
Together with: 150 mM KCl
Baseline: input library
Reading: higher = stronger binding
Measurement: log2 enrichment
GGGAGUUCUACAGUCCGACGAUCCCUGUGCUACACAUCGUAUGUACCGAAUCGGGGUUUUUGGGGUUUGGGGAAAAAAAGGGGAAAGUAUUAUGUUACGCCGUUCGGAUCUGCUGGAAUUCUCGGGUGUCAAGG: 0.166
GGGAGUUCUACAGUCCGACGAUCAGUCCUGUGCUACACAUCGUAUGUACCGAAUCGGGUUUUUGGGAGGGUUUUUUUGGGAAAGUAUUAUGUUACGCCGUUCGGAUCUGCACUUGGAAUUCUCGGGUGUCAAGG: 0.403
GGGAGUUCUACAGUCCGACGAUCUGUGCUACACAUCGUAUGUACCGAAUCGGGCCCCCCCGGGCCCCCCCGGGGCCCCCCCGGGGAAAGUAUUAUGUUACGCCGUUCGGAUCUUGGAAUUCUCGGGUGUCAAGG: -1.54
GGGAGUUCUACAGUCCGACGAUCUCCUGUGCUACACAUCGUAUGUACCGAAUCGGGUUUUUUUGGGAAAGGGAAAAAAAGGGAAAGUAUUAUGUUACGCCGUUCGGAUCUGCAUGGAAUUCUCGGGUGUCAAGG: -0.137
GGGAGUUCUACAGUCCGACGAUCUCCUGUGCUACACAUCGUAUGUACCGAAUCGGGGAAAAAAAGGGGUUUGGGGAAAGGGGAAAGUAUUAUGUUACGCCGUUCGGAUCUGCAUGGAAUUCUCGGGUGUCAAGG: 0.678
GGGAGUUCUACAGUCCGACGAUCCCUGUGCUACACAUCGUAUGUACCGAAUCGGGGUUUUUUUGGGGAGGGGAAAAAAAGGGGAAAGUAUUAUGUUACGCCGUUCGGAUCUGCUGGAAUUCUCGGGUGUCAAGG: 0.0426
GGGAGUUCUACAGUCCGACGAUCUCCUGUGCUACACAUCGUAUGUACCGAAUCGGGAAAAAGGGUUUUUUUGGGAAAAAGGGAAAGUAUUAUGUUACGCCGUUCGGAUCUGCAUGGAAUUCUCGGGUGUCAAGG: -0.464
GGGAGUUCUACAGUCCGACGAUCUUCAUUCCCAAGGGAGGCCAUGUCUGGAGAUAGACCUUGAAUUUAAUAAAUUUUAGGCACUAUACCAUUUCAGUGGAGAAAAUUGUUGGGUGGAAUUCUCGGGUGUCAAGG: -1.78
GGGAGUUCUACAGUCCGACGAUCCAAGUCCUGUGCUACACAUCGUAUGUACCGAAUCGGCCCCGGGCCCCGGGCCCCGGAAAGUAUUAUGUUACGCCGUUCGGAUCUGCACUUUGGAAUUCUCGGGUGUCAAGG: -0.615

Sample 2
Target: Runt-related transcription factor 3, Runt domain (RUNX3, Homo sapiens, UniProt Q13761, residues 53-186)
UniProt Q13761, sequence (53-186, looked up): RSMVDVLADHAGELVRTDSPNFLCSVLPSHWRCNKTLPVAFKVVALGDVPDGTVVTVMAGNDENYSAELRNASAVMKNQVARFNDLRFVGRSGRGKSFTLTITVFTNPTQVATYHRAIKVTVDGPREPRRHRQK
Technique: protein-binding microarray
Form: hairpin DNA
Sample: in vitro
Tested at: not given
Notes: whole hairpin DNA, median over replicate spots
Baseline: not given
Reading: higher = stronger binding
Measurement: median fluorescence
GAGGCCTGTCGCGGTTCGCCTCCTGGCGAACCGCGACAGGCCTCACACTC (5mC at 17): 5470 a.u.
GAGGCCTGTTGCGGATGGCCTCCTGGCCATCCGCAACAGGCCTCACACTC: 4950 a.u.
GAGGCCTGTTGTGGTGGGCCTCCTGGCCCACCACAACAGGCCTCACACTC (5mC at 29): 4990 a.u.
GAGGCCTGTTATGGTTGGCCTCCTGGCCAACCATAACAGGCCTCACACTC: 4130 a.u.
GAGGCCTGTCGCGGTTGGCCTCCTGGCCAACCGCGACAGGCCTCACACTC (5mC at 20): 7470 a.u.
GAGGCCTGTCGCGGTTGGCCTCCTGGCCAACCGCGACAGGCCTCACACTC (5mC at 27): 5360 a.u.
GAGGCCCAACCGCGACAGCCTCCTGGCTGTCGCGGTTGGGCCTCACACTC: 6290 a.u.
GAGGCCTGGCGCGGTTGGCCTCCTGGCCAACCGCGCCAGGCCTCACACTC (5mC at 36): 6290 a.u.
GAGGCCTGTCGCGGTCGGCCTCCTGGCCGACCGCGACAGGCCTCACACTC (5mC at 16 28): 6270 a.u.
CTCAGTTCTGTGCGCTGGACTCCTGTCCAGCGCACAGAACTGAGACACTC (5mC at 13): 4210 a.u.
GAGGCCTGTGGTGGTTGGCCTCCTGGCCAACCACCACAGGCCTCACACTC: 5730 a.u.
CTCAGTTCTGTGGGCTGGACTCCTGTCCAGCCCACAGAACTGAGACACTC (5mC at 33): 4180 a.u.
GAGGCCTGCGGCGGTTGGCCTCCTGGCCAACCGCCGCAGGCCTCACACTC (5mC at 9): 6150 a.u.
GAGGCCTGTCGCGGTGGGCCTCCTGGCCCACCGCGACAGGCCTCACACTC (5mC at 29): 5310 a.u.
GAGGCCCACGCGCAACAGCCTCCTGGCTGTTGCGCGTGGGCCTCACACTC (5mC at 35): 5150 a.u.
GAGGCCTGTCGCGGTCGGCCTCCTGGCCGACCGCGACAGGCCTCACACTC (5mC at 16): 5910 a.u.
CTCAGTTCTGTGGCGTGGACTCCTGTCCACGCCACAGAACTGAGACACTC (5mC at 14): 4290 a.u.
CTCAGTTCTGTGCGCTGGACTCCTGTCCAGCGCACAGAACTGAGACACTC (5mC at 13 31): 4110 a.u.
CTCAGTCCTGTGGGCTGGACTCCTGTCCAGCCCACAGGACTGAGACACTC (5mC at 7): 4030 a.u.

Sample 3
Sequence: B1 (ARIH2 RING domain)
Technique: yeast two-hybrid
Sample: yeast
Notes: mostly zero background
Baseline: not given
Reading: higher = stronger interaction
Measurement: lacZ reporter activity
B1: ARIH2 RING domain (UniProt O95376); chain HVPTSHPPHHCAVCMQFVRKENLLSLACQHQFCRSCWEQHCSVLVKDGVGVGVSCMAQDCPLRTPEDFVF
UBE2U UBC core domain (UniProt Q5VVX9): 16400
UBE2H UBC core domain (UniProt P62256): 0
UBE2V1 UBC core domain (UniProt Q13404): 0
UBE2V2 UBC core domain (UniProt Q15819): 0
UBE2E1 UBC core domain (UniProt P51965): 0
UBE2N UBC core domain (UniProt P61088): 0
UBE2L6 UBC core domain (UniProt O14933): 0
UBE2E2 UBC core domain (UniProt Q96LR5): 0
CDC34 UBC core domain (UniProt P49427): 0
UBE2Q2 UBC core domain (UniProt Q8WVN8): 0

Sample 4
Target: RNA binding protein fox-1 homolog 2, RRM domain, GST-SBP tag (RBFOX2, Homo sapiens, UniProt O43251-10, residues 100-194)
Technique: RNA Bind-n-Seq
Form: RNA
Sample: in vitro
Tested at: 365 nM
Notes: natural RNA segment, single round, ends assumed
Baseline: no-protein control
Reading: higher = stronger binding
Measurement: RBNS enrichment (R)
Construct (chain): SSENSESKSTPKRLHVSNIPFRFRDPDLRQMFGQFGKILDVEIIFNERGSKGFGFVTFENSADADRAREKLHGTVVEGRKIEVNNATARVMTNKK
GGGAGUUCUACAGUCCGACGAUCAGCAACGUGGGGGGUGGGGUUGCGAGGGAUGUGUUCACAUGUACCCAUCAUUUGAUCAUAGCACUGUGAUUGCUUUUGAUGUGUGUCUCUAGUGGUGUGCUGUCUGUUGGUGGAAUUCUCGGGUGCCAA: 1.83
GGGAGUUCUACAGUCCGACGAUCUAGACUGUUGAAUACUGUUACUUUUAUAUAGAACCCAAGGAAUGCCUUCCUGUCAUAUUUUAGCCAAAACAACUGGUUAUAUGCCUCCCUUGCAGCAAGCACUACAAUGUUGGAAUUCUCGGGUGCCAA: 0.651
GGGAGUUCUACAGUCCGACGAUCGUGCAGCCACACAGGCUGCAACCUUCCACUCGCAGCCGCUGCUGACACCUGGCUGCCGACCUCACUCAGCUCACAGUGGGCUCCAGGCCCGUUUUUACUCAGACAGGGACUGGAAUUCUCGGGUGCCAA: 0.24
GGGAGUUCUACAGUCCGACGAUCGUUGUAAACCUCUUUAUUUUGGUGACUGUGACCACUUCUUUGUAGCCACCAAUUGUAGUGACCAGUUGCCUAAUGGUCACUUUCUGACUCCAGCCUUGCCAGCCUGACUCUGGAAUUCUCGGGUGCCAA: 0.719
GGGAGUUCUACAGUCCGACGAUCUUAAGAUGGAAGACUUCCUUCUUGACAAAUUGUGUUUUUAGUGAAUUUCUUAAACCGUUUUAUUUAGCCCUCCUUCCCUCUUUCUAGUUGGAAGCCAAAUGUACUCAUGAUGGAAUUCUCGGGUGCCAA: 0.476
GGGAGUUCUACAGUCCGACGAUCGAUUGAUGCGCACCAGUCUUGAGGAAACGAUCUCCCUAUUCCCUUACCCUGUUACUCAGCCACGCCGUGUGUAGGCUUAGCCUCAGGUGGCAGAUGUUUGAGGAAAGGAAUGGAAUUCUCGGGUGCCAA: 0.427
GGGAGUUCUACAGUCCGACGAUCCUUCAGUGAAUAUGUGACUAGUAAAGCUUAAAUAUGUUUGGAUCUAAUAGAGCUCAUGAAAUACUGUAACUUGGGGAUUGUAAAUGAAUGGAUACAAUAGGUUAAGGCCCUGGAAUUCUCGGGUGCCAA: 3.13
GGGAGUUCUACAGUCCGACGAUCGCUCUGCUUUUCUGCCUUCAGUUAUCUACAGAACAGCAGGUUUGCCUGAAGUGCAGCCUUCACCAGGGCAUUGUCUCUGCUGGUGUCAGUGACCCACAUUGAUGAGUGGUUGGAAUUCUCGGGUGCCAA: 0.459

A few entries again (sample 2):
CTCAGTCCTGTGGGCTGGACTCCTGTCCAGCCCACAGGACTGAGACACTC (5mC at 7): 4030 a.u.
GAGGCCTGTCGCGGTTGGCCTCCTGGCCAACCGCGACAGGCCTCACACTC (5mC at 20): 7470 a.u.
GAGGCCTGTGGTGGTTGGCCTCCTGGCCAACCACCACAGGCCTCACACTC: 5730 a.u.
GAGGCCTGTCGCGGTGGGCCTCCTGGCCCACCGCGACAGGCCTCACACTC (5mC at 29): 5310 a.u.
